Published values collected from several papers.
Parts stem from different laboratories: compare values within a part only.

Block 1
Target: Histone acetyltransferase KAT6A, winged helix 1, GST fusion (KAT6A, Homo sapiens, UniProt Q92794, residues 1-85)
Technique: protein binding microarray
Molecule type: double-stranded DNA, one strand shown
Medium: in vitro
Tested at: not given
Notes: 8-mer, flanks averaged, mean of 2 arrays, mostly near background
Baseline: not given
Reading: higher = stronger binding
Endpoint: E-score
Target sequence (chain): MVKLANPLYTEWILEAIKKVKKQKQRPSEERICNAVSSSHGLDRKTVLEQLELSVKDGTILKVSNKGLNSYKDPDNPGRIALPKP
CCCAAGAC: -0.244
AGCACGCC: 0.207
CCAAGGGA: -0.199
AAAAAGGG: 0.0183
AATCCATC: -0.245
TGATAAAA: -0.0554
CTGTAGGC: -0.0723
GTATTGTA: 0.0517
GACTTCGC: 0.0292
AGTGTCAG: -0.152
CTTAATAA: -0.0398
TAGGCACA: -0.0903
CTTGAGGA: -0.107
CCATGAAA: -0.192
GCTGTGCC: -0.0838
AAAGAAAA: -0.124
TCAGTTCA: -0.0543
GATGTCGA: -0.0741

Block 2
Target: Centromere-binding protein 1, full length, N-terminal tag (CBF1, Saccharomyces cerevisiae, UniProt P17106, residues 1-351)
UniProt P17106, sequence (whole entry, looked up): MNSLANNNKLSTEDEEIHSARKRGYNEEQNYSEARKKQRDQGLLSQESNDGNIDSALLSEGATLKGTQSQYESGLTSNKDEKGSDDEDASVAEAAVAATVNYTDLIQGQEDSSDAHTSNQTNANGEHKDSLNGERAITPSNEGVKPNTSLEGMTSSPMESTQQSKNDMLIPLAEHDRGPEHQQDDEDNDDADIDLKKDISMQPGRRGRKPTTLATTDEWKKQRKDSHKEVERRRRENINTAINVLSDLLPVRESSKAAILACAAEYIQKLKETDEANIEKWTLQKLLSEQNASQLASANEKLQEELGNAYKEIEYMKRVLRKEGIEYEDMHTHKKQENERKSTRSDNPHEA
Technique: protein-binding microarray
Molecule type: double-stranded DNA, one strand shown
Medium: in vitro
Tested at: 0.8 µM
Notes: whole 60-bp probe, no competitor
Reading: higher = stronger binding
Endpoint: fluorescence intensity
All sequences stand within: … GTCTTGATTCGCTTGACGCTGCTG
GAATCAGCTTATGGTGATGGCACATTTTTGCATTAG: 514 a.u.
GAAAGTACCTTTCAGGTGGTTAGAGTGCGATCCTAG: 543 a.u.
CTAGTAACTTAGTATCACATGTATTAGTATTAATTC: 1960 a.u.
CTATACTGTATCTATTTCGTGACTTCTTAAATGTTC: 735 a.u.
GAATGCCGCGTATATCATGACACTTATACTTGGTAG: 541 a.u.
GAAGAAAAAAACATACACGTGTGTTTTTAGACTTAG: 5690 a.u.
GAAAATGAGTATCAACACGAGGAACAGTACAGGTAG: 607 a.u.
GAAAAGAGTTTAGATCACGAGTATTTTCGCTCTTAG: 1400 a.u.
CTAATGAAACGCCATCACCTATCGACTAGTATTTTC: 520 a.u.
CTATTATTAAATTACCACGTTTTCGCATAACATTTC: 782 a.u.
CTAACCAATAGAGTGCACGTTTCTTGATGCTATTTC: 668 a.u.
GAATATTGAAACCAAAACGTGCTATTTACTGTGTAG: 626 a.u.
TGTACGAAGCTATTTCACGTCATTATAGTAGTTAGG: 568 a.u.
GAATTTGCCTCAATGAACGTGTGTAATGGCGGTTAG: 531 a.u.
GAAGTGGATTACGCTCACGTGCTTTCCGCGGAATAG: 10800 a.u.
GAACAAGATCAACGTCACGTCATAGTCAACTTCTAG: 687 a.u.
CCTAACTACTATAAAAGCGTGCAATAGCTTCGTACA: 525 a.u.

Block 3
Target: RNA binding protein fox-1 homolog 2, RRM domain, GST-SBP tag (RBFOX2, Homo sapiens, UniProt O43251-10, residues 100-194)
Technique: RNA Bind-n-Seq
Molecule type: RNA
Medium: in vitro
Tested at: 365 nM
Notes: natural RNA segment, single round, ends assumed
Baseline: no-protein control
Reading: higher = stronger binding
Endpoint: RBNS enrichment (R)
All sequences stand within: GGGAGUUCUACAGUCCGACGAUC … UGGAAUUCUCGGGUGCCAA
Target sequence (chain): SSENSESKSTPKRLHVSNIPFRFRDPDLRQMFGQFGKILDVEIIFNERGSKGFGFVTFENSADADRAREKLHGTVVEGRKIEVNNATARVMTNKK
UGCUGUGCGGCUUCACCAGCGGUUGGGAUUGGCCCAGCUUGGAGUGCUUGUGUGGUCCAACCUCAGUCUGGCCCCAUAGCGACUUUUGCCCCAUGAUUCUGCUUCACUGU: 0.6
AAAAAAGAAACUAAAAGUUAAUAUUUAGUUGCCUAUAUUAUGUAACCUUUUAACUAUAUAUAAAGUACUUUUUUGGUUUCUUUCUCACCACUUUUAUUCAAAAGUACUUU: 0.561
CAGUUUUGUUUUCUGGGUUUCUUCCCCCUUUGUAGGAAUCAGAUACCUUUUGUAGAAAAAAAUGGCUUAUGCCACGUAAAGGUGAAUUUUUAGAAACCACCUUCUAGGCG: 0.659
AACUGGAUGGACGUUGUUAGGGUGAGAAAUAAAAGGACAGCCUCCAAAGGUUGAGAAUGAGAAUUGUUUUUUCCUGGAUAUCAAAGGGAUUAUCACAGCGCAAUCAUUGU: 0.885
CCCCAGGAAUCUCUAAGACCAGGGCUGGGGCAGUGUCUGUCACUGGCUUGUUUGUUCCCUACCAAUAUUCUGUUGCUGUUUGAAGUAGUGCCAGGGUCCCCUGGGAAGAU: 0.894
AAGGAUGACUUUUUUUCUGAUUCAAAAGUGAACUUGAUUUUAAAAACCAGUCAAGAGCAAUCAAAGCAGCACAUGGUGUUGUAUACUUCAUUAGCAAGUGAGUUUGGUGU: 0.401
UGCUCACUCAUCUCAGCUCCAGCCGCACAGCCACAGCCUCAGGUCUGUUUAGCUUGGGAAGCCAAAAGUGGAUGCCUGUGUUCAUGGGCCUCCCCUGGGAGUUAGUGAUU: 0.486
UUCAUUUGAAGCUGAAUAUAUACGUAGUCAUGUUUAUGUUGAGAACUAAGGAUAUUCUUUAGCAAGAGAAAAUAUUUUCCCCUUAUCCCCACUGCUGUGGAGGUUUCUGU: 0.412
AUCUGAAGAUGAUUGCUUUUCCCUGCUGCCAGCUGAUCUGAAAUGUUUUGCUGGCACAUUAAUCAUAGAUAAAGAAAGAUUGAUGGACUUAGCCCUCAAAUUUCAGUAUC: 0.207
UUUUUCAACCUUUUCCAUUUGCUGAGUGAAGAUGGUCACUAACUCUAUGCUGCAAUAACGGGAGAGAUCCUGUCCAAGGAAGUCUAACGUCUAUAAAAAUGGAGUCACUG: 0.261
UUAAACUGGCAUAUAGAAAAAAAGGAGGAUUUUUCUGCAUUGUAAAAUAAUCAGUAUGGUUUAUAUGUUGAAUUUGACAUUUGUGUGUAAUUUCAUGGUGGCCUAGUGUU: 1.22
UACAAGGACUUUUGACAGUUUAGUGCUUAGUAACUAGUCUUAGUUUUCUUCCUUUUAGAAAAACUGUACAUUUGAUCUCUCAAUUCUGUUUGCAAAGCAGUGCAGAAAAC: 0.259

Block 4
Target: Interferon regulatory factor 3, full length, phosphomimetic (IRF3, Homo sapiens, UniProt Q14653, residues 1-427, S386D/S396D/S398D/S402D/T404D/S405D)
UniProt Q14653, sequence (whole entry, unmodified, looked up): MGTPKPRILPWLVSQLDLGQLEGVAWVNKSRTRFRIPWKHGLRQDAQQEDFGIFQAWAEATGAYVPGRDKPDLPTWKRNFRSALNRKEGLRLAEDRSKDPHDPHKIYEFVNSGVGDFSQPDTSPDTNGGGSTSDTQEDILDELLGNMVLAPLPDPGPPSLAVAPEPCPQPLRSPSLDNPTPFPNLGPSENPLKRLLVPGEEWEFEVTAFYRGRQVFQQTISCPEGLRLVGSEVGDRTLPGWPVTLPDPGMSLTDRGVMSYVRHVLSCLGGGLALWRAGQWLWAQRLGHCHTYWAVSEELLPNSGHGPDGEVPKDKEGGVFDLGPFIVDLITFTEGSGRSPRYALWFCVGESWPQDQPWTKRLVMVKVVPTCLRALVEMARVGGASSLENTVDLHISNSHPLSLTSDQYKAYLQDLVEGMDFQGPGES
Technique: protein-binding microarray
Molecule type: double-stranded DNA, one strand shown
Medium: in vitro
Tested at: 2540 nM top
Notes: 60-bp whole probe
Added: salmon DNA 0.4 mg/ml
Baseline: random background probes
Reading: higher = stronger binding
Endpoint: fitted relative affinity
All sequences stand within: GCCTAGCAC … GTCTTGATTCGCTTGACGCTGCTG
TTAGAGCTGAGTTTCGATTAGTGCTAG: 2.28 z-score
TTAGATTTCAGTTCCGGTTAGTGCTAG: 3.8 z-score
TTCGATTTCGGGTATCGATTAGTGCTA: 2.38 z-score
TTGTGTCTGGGCATTTTTTTAGTGCTA: -0.887 z-score
GACGGTATAGGTTTCGGGACGTGCTAG: 2.53 z-score
GACGGTTTCCGACTGCTGACGTGCTAG: 5.04 z-score
TCATTTCTAATGTTTTTTACTGTGCTA: 1.88 z-score
TTAGGTTTCGGACTGGGCTAGTGCTAG: 4.21 z-score
CTCACTCTGTCCCTCTGTGAGTGCTAG: 0.614 z-score
TCATCTGTCATTTTCTCACTGTGCTAG: 1.18 z-score
TCATTTTAAGTTCTCTGACTGTGCTAG: 1.75 z-score
ATAGATCTCAGTCTCGATTAGTGCTAG: 0.802 z-score
GACGGACTGGGCTTTCGGGACGTGCTA: -0.561 z-score
GACGATTTCAGTCTAGAGACGTGCTAG: 1.75 z-score
TTAGGTTCCCATTTCCTTTAGTGCTAG: 5.36 z-score
GACGGACTGCGGACTGGGGACGTGCTA: -0.988 z-score
TTAGTACTGGGACTGGGTTAGTGCTAG: -0.682 z-score

Block 5
Target: RING finger protein unkempt homolog, zinc fingers 1-6, SBP tag (UNK, Homo sapiens, UniProt Q9C0B0, residues 30-357)
UniProt Q9C0B0, sequence (30-357, looked up): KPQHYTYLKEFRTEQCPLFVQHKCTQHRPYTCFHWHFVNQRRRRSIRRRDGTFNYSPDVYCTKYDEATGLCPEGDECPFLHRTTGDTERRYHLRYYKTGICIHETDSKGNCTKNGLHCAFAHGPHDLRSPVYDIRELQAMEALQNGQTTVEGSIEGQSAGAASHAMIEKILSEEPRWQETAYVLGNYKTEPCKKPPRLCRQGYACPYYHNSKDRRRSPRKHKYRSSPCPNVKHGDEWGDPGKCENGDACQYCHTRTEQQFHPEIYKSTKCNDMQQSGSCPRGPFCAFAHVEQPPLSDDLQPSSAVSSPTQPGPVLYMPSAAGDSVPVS
Technique: RNA Bind-n-Seq
Molecule type: RNA
Medium: in vitro
Tested at: 100 nM
Notes: RNA with constant flanks, vertebrate orthologous sites, ends assumed
Baseline: input RNA pool
Reading: higher = stronger binding
Endpoint: bound/input enrichment
All sequences stand within: GGGAGUUCUACAGUCCGACGAUC … CAACAGAGGAUUGAGCAUCA
AAGUAUCCCAGUUUACCGUGUUGAGUUGGCAUUGUACAGAAAUUAACAGCCAUAUUGGUCUAGAAACGUUAAACUUAAUUUUUUUCCAUUUGUACAGGGGUAACGCACUGUAUUAAAUAU: 0.729 ratio
GAAGGGCUGCGUAGAGUAGGGUCCUGUUCUCUUUAGAGCGUUCUUCUCUGUUUUGUCUUCCUCAGGGUGGGGUAGGGGUUGUGGUGCACCCCAGCCCUGAGGCGUGAGUGUUUGUGGUUC: 1.01 ratio
GUGAUGUCCUUACUGUCCCCAGCCAGGGCCGGGGACCGGUGUUUCACUGAGGACCUGCAUUAGAAACAUUUUUUAAAUUGUUGUACAGGAAGAGAUGUGUCUAAAACAGCAUCUUAAAGC: 1.01 ratio
AAGAUGGUGGUUGUACAUUAUUUCAUUUAGAAAAUAUAAAAAUUCAUUUUGUUUUGAAGCUAGGUGUUAAACUGGAGUAGCUAUAUUAUACCCCUAGAGAAUGGGGCAGUUGUGCCCUUC: 2.93 ratio
CUAGCCUUUCACUUAGGGUCAGCCUCAAAUCUAUAGGAUUUAUGACAAAUGUGUUAUAUCUAGUUGAGUUAAAUAUUUUUAUUAGCCUGUAAAUAAAGAUAGCAUCUCCUACAUUAAAAU: 0.864 ratio
CUCCCGGGGCUUGGUGGAGUAGGCUCCUGUGCUCCUGACAGUGUUCUUUGUUUUAUUGUCCUCGGGGUGGGGGGUGCUCACUGCCCCUGCGGUGCGAGCUUUGUGGUUCAUCUGUAUUUA: 0.478 ratio
AAGAAAUGCUGGCUGCAAACCCUCAGGAUCGUCCAGAUGCUUUUGAACUAGAACUCAGAUUAGUACAAAUUGCGUUUAAAGAUAGCAGCUGGGAAACGUGACGCAUAUUGUUUGCAAAUA: 0.773 ratio

Repeated from above (block 2):
GAAAGTACCTTTCAGGTGGTTAGAGTGCGATCCTAG: 543 a.u.
CTAGTAACTTAGTATCACATGTATTAGTATTAATTC: 1960 a.u.
CTATACTGTATCTATTTCGTGACTTCTTAAATGTTC: 735 a.u.
GAATGCCGCGTATATCATGACACTTATACTTGGTAG: 541 a.u.
GAAGAAAAAAACATACACGTGTGTTTTTAGACTTAG: 5690 a.u.
GAAAATGAGTATCAACACGAGGAACAGTACAGGTAG: 607 a.u.
GAAAAGAGTTTAGATCACGAGTATTTTCGCTCTTAG: 1400 a.u.
